Published values from different studies.
Numbered parts are unrelated; each lists some results of a single study.

Sample 1 — method: universal PBM; form: double-stranded DNA, one strand shown; medium: in vitro; tested at: not given; reading: higher = stronger binding; measurement: E-score
Target: Sal-like protein 4, full length isoform B (SALL4, Homo sapiens, UniProt Q9UJQ4-2, residues 1-616)
Setting: 8-mer, flanks averaged, mean of replicates
Oligonucleotide = CGCTAGCA; value = -0.0874
Oligonucleotide = CCCTCCCC; value = -0.118
Oligonucleotide = AAATTATT; value = 0.465
Oligonucleotide = AAGGCCAG; value = -0.177
Oligonucleotide = CCGTTTCG; value = -0.177
Oligonucleotide = CTTTTCTA; value = 0.176
Oligonucleotide = AGGGAAGG; value = -0.13
Oligonucleotide = CTGAGCAA; value = -0.0705
Oligonucleotide = ATCTTGAA; value = 0.191
Oligonucleotide = CTAGGTGA; value = -0.201
Oligonucleotide = CCCCACAG; value = -0.267
Oligonucleotide = CCATAAAA; value = 0.271
Oligonucleotide = ACCCTGGA; value = -0.166
Oligonucleotide = GCTTTTCA; value = 0.066
Oligonucleotide = AAGTATCC; value = -0.0192
Oligonucleotide = CCTTAGTA; value = 0.0295
Oligonucleotide = ACACCCAA; value = -0.0615
Oligonucleotide = AAACTGAA; value = 0.139
Oligonucleotide = ACTCGAGC; value = -0.234

Sample 2 — method: protein-binding microarray; form: double-stranded DNA, one strand shown; medium: in vitro; tested at: not given; reading: higher = stronger binding; measurement: E-score
Target: Myc proto-oncogene protein, bHLH-zipper, MAX partner unstated (MYC, Homo sapiens, UniProt P01106, residues 368-449)
Chain of UniProt P01106 (368-449, looked up): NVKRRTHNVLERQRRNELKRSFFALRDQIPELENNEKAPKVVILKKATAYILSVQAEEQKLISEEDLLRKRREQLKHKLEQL
Setting: k-mer, scored over probes, only values ≥0.25
Oligonucleotide = AGCATGGG; value = 0.385
Oligonucleotide = ACCACGAG; value = 0.438
Oligonucleotide = CCTCCACG; value = 0.329
Oligonucleotide = CCACGACG; value = 0.293
Oligonucleotide = CACATTGC; value = 0.327
Oligonucleotide = CACCGTGG; value = 0.362
Oligonucleotide = GACAACGC; value = 0.279
Oligonucleotide = CGAGGGGA; value = 0.297
Oligonucleotide = TGAGCACA; value = 0.349
Oligonucleotide = CGCGAGGA; value = 0.302
Oligonucleotide = CCCGCCCG; value = 0.264
Oligonucleotide = GGTGGGGA; value = 0.289
Oligonucleotide = ACGTGGGG; value = 0.388
Oligonucleotide = CATGTGAC; value = 0.462
Oligonucleotide = ATGGCCCC; value = 0.291
Oligonucleotide = GGGCGGGA; value = 0.301
Oligonucleotide = CAAGCATG; value = 0.38
Oligonucleotide = CCCCATGA; value = 0.258
Oligonucleotide = CCCCGCCC; value = 0.318
Oligonucleotide = AACCACGA; value = 0.395
Oligonucleotide = ATGCGCTC; value = 0.3
Oligonucleotide = GCATATGC; value = 0.343
Oligonucleotide = CGAGGTCA; value = 0.255
Oligonucleotide = AACGTGTA; value = 0.349
Oligonucleotide = ATGCCCCC; value = 0.276

Sample 3 — method: RNA Bind-n-Seq; form: RNA; medium: in vitro; tested at: 100 nM; baseline: input RNA pool; reading: higher = stronger binding; measurement: bound/input enrichment
Target: RING finger protein unkempt homolog, zinc fingers 1-6, SBP tag (UNK, Homo sapiens, UniProt Q9C0B0, residues 30-357)
Chain of UniProt Q9C0B0 (30-357, looked up): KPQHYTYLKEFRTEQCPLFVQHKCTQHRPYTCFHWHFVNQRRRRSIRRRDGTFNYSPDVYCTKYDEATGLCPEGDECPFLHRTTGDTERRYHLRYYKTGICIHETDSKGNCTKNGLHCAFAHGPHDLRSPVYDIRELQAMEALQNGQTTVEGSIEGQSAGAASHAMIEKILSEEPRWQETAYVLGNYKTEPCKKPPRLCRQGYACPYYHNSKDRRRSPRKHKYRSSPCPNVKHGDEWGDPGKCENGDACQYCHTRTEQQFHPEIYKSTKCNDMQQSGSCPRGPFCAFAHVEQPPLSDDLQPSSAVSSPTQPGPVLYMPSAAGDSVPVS
Setting: RNA with constant flanks, vertebrate orthologous sites, ends assumed
All sequences stand within: GGGAGUUCUACAGUCCGACGAUC … CAACAGAGGAUUGAGCAUCA
Oligonucleotide = UUCAGGCACAACUGACUGGUUCACAGCAUUCCUUACAUAGUUAUCUAUCAAAUGCAAAUUUAGUUAAUUUUCAGGAAACAAGCAGGCAGUCAUCUUUAUCCUGUAGCCCAAUUGGAGAGU; value = 2.84 ratio
Oligonucleotide = GUUCAAACCUGUGGUACCUUGGCCUCAUGUUGAAGGCGUGGAAGUGGACUUGGAAUCCAUUCGAAGGAAAAAUAAGGCCAAAAAUGAACUAAAUCAGCAUGGUGGUGGUGAUAACAAUCA; value = 0.46 ratio
Oligonucleotide = GGGCGGCCGGUGGGGAAAUCCCAUGCCCUGGCCUUGCCUCCCCUCCCUGCCACCCGCUCCUAUUUUUUUUUUUAACCACCAUGUGAUUAAGGUCGGCACAGCCUCCCCCGACCCACUCAG; value = 0.682 ratio
Oligonucleotide = UUCAGGCACAACUGACUGGUUCACAGCAUCCCUUACACAAUUAUCUAUCAAGUGCAAGUAUUGGUAAUUUUCAGGAAACAUCCAGACAGUCAUCUUUAUCCUGUAGCUCAAUUCGAGAUU; value = 0.694 ratio
Oligonucleotide = GCUGCGAUCCCUUCAAUAUACACAGAAAACUAUCGAAGAAAAACUUGCGAGCAAUUGACUUGGAUGAUGCAACUUUUCUAAGCGCCAAGUUUGGAAGGCAGUUUGUACCUGGUUGGAAGC; value = 0.229 ratio
Oligonucleotide = AAAUUAUAGCAGGAGAGCCAAGCAGUAGCAUUGGGUUUUUUUUGUAAAUGUAAAAGUGAUUAGAUUCACACUUUGUUUCCUUAUUCAGUUUUAAAAAUAAAAAAAUACCUCAGUGCUGUU; value = 0.338 ratio
Oligonucleotide = AAGGUGUGCUCUUUGGGGAGCUGCUGGCCGCUUAGCAUUGUUUGAUUUAUGACCUUGACAUAAUAGAUAGGCUCGUGGUUUUUUUAAUUUAAAGAUGUUAAGACUUAAUUCACUAAAAUU; value = 0.64 ratio
Oligonucleotide = AUGUAGUUUGUUUUUAAUUUCAAGCAGAAUCUUAUUGUACUUGAAUGUGCCCUGUUUUGUUAGCACACCUAGACUUGCUGUAACUGUACUCAUGUCCCAGUAUGUACGUUCUUUCUAUGA; value = 1.03 ratio
Oligonucleotide = GUUUGUUUUUAAUUUCAAGCAAAAAAAAAUCUUAUUGUACUUGAAUGUGUCCUGUUUUGUUAGCACACCUAGACUUGCUGUAACUGUACUCAUGUCCCAGUAUGUACGUUCUUUCUAUGA; value = 0.666 ratio
Oligonucleotide = GUCUAGUGUUUAAGCCAGCACUUGUAGAACGCUAUUUAUUUGUGUCUCUAAGUUUGUACAUAAUCUUAACCUCAUAUUGUUGCUGAGUUUCAUUUUGAGGAAGGCAAAUUUGAGUUUUAU; value = 0.726 ratio
Oligonucleotide = AAAUUUAUUUUAUGCCCUGGACUCCCUACCGCACCGAUACCUUAAUAGAAUAUGCUUCUUUAGAAGAUUUUCAAAACAGCCGCCAGACAACAACAUACAAACUUCCAAACCGAGUGGACG; value = 1.39 ratio

Sample 4 — method: RNA Bind-n-Seq; form: RNA; medium: in vitro; tested at: 365 nM; baseline: no-protein control; reading: higher = stronger binding; measurement: RBNS enrichment (R)
Target: RNA binding protein fox-1 homolog 2, RRM domain, GST-SBP tag (RBFOX2, Homo sapiens, UniProt O43251-10, residues 100-194)
Setting: natural RNA segment, single round, ends assumed
All sequences stand within: GGGAGUUCUACAGUCCGACGAUC … UGGAAUUCUCGGGUGCCAA
Construct (chain): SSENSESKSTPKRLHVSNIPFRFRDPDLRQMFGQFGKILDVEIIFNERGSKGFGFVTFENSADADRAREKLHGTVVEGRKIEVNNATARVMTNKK
Oligonucleotide = UAUUGGACAAGGGCUUGCUUCAAGCAUCUGUAUUAGUCUGUAUUAAUGCUGCUGAUAAAGACGUACCCGAGACUGGGAAGAAAAAGAGGUUUACUUGGACUUACAGUUCC; value = 0.326
Oligonucleotide = GUGGGGUGACUGGGAGACCUAGAGGGAAAGCCUGCUAUGCAGGGGGAGAGCACAGGACUGGCCCUGCUCUGCGGCCUCCUUUGUCCCAUAACCUGAAGUUAAGUCACAUC; value = 0.559
Oligonucleotide = UGCUCUGCCGAGUAGAAAGUAGGUAGGGUCUGAAGGUGUCGAGAAGGCCUUACCUGUGGUGUGACAGAUUGAAUUGAUUGUUUACACUGGGGACUGUAUCUCGGAUCUUU; value = 0.722
Oligonucleotide = GCCCCUGGCCAUCCUUGUUGGAGGCUUCUGGGUGGAACACUGGGUCUAGAACCUUCUUCCGUGGCUCUCAGGCAGCCCAAGGCCCAACACCAGUUGGGAUAAGUGUCAGA; value = 0.231
Oligonucleotide = GGACAUGGGGGUGUGCAGAAGUUCUGUUCUUAGUGAGAAUGGCUGGCCUGAGAAUCCAGCUCACCUCCUCUGCCCACAGUCUGGACUGCUUGUGGGAAGGCCAUCUCCUC; value = 0.801
Oligonucleotide = AUUAGACUGGUGAGAAAGAGCAGCCAGGGGGUCAGGCUUUCAGUCACCACCCUCCUGCUGCCACAGAAGGAAGUUCUCAGUAUACACCACAGUGCACGUGCAUGAUGGAG; value = 8.69
Oligonucleotide = UGGUCCCAUUAUUCUAGGGUCUUACUCUUUGUAUGAUGAAAAGAAUGUGUUAUGAAUCGGUGCUGUCAGCCCUGCUGUCAGACCUUCUUCCACAGCAAAUGAGAUGUAUG; value = 0.286
Oligonucleotide = CUCAUGAUCAUAUCAUGAGAAAACCGCCUUUUCAUAUUUAUUUUUCUAACUGAUCACAUACGCAGGAGUGGCCAUGGUCGAGAGGGCCUGACACACUUGGCCCUCGAUGU; value = 0.212
Oligonucleotide = CGAUGCUGACCUCACCUGGUCCUCCGCCUACUGUCCCUCUCAGUGCCUUCUCUCAGCUCCCAGGCCAACAGUAGCCAAACCCCUAGAGACAGUGAUGCCUGCCCGCACCC; value = 0.718
Oligonucleotide = GCCAGCCCUGCAGCUUCAGCACCUGCCCCACCCAGAGUGGGAGUCAGGUGGAGCCACCUGCUGGGCUCCCCCAGAACUUUGCACACAUCUUGCUAUGUAUUAGCCGAUGU; value = 0.241
Oligonucleotide = UAUGUCGAGGCUAUCCAGUGACAGCCCAUGGGCAGGCUGGCGGAGAGACGGAAAUGGGCAGUUCAGGAGCUCCGUUAGCCUUGGCCUGGGCAGUGACACCUCUAGUGCCC; value = 0.512
Oligonucleotide = GUUUAUGUAAUAGUUCUAUCCUUUUGCCUGCAGGUCAGUUGUAAUAAAUCUAGGAUGUGAUGAUGACUUUGUAAUUUGAUUUUCUGAAAUCAGACCCUGAGAGGGGAAAA; value = 13.6

Sample 5 — method: protein binding microarray; form: double-stranded DNA, one strand shown; medium: in vitro; tested at: not given; baseline: not given; reading: higher = stronger binding; measurement: E-score
Target: Histone acetyltransferase KAT6A, winged helix 1, GST fusion (KAT6A, Homo sapiens, UniProt Q92794, residues 1-85)
Setting: 8-mer, flanks averaged, mean of 2 arrays, mostly near background
Residues (chain): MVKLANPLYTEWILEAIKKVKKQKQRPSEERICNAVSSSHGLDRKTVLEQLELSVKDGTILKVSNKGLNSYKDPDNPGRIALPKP
Oligonucleotide = AGTTGTAG; value = -0.175
Oligonucleotide = ATCGCTTC; value = 0.0506
Oligonucleotide = AACCGTAT; value = 0.119
Oligonucleotide = CTGGAAAC; value = -0.0867
Oligonucleotide = GACGCGCA; value = 0.323
Oligonucleotide = GAGGTTTA; value = -0.122
Oligonucleotide = AGCGCGGC; value = 0.442
Oligonucleotide = AATGTCGC; value = 0.0545
Oligonucleotide = GGTTGTCA; value = -0.172
Oligonucleotide = CTAGCGCC; value = 0.294
Oligonucleotide = GGCCTAGA; value = -0.0253
Oligonucleotide = TAAGCTTA; value = -0.124
Oligonucleotide = AGCCAAAG; value = -0.143
Oligonucleotide = GATGGCCC; value = 0.0434
Oligonucleotide = AGTTATTG; value = -0.188
Oligonucleotide = ACAGCAAG; value = -0.0963
Oligonucleotide = ATAGCTCG; value = 0.0478
Oligonucleotide = CTCACACA; value = -0.143
Oligonucleotide = CGTTGTAG; value = -0.0372
Oligonucleotide = CTATGGTA; value = -0.101
Oligonucleotide = ACACTATC; value = -0.0701
Oligonucleotide = GGATTATA; value = -0.0167
Oligonucleotide = CCTCTCAA; value = -0.17
Oligonucleotide = GATCGGTA; value = 0.201
Oligonucleotide = ATTGCGGG; value = 0.301

Some of these lines once more (sample 5):
Oligonucleotide = ATCGCTTC; value = 0.0506
Oligonucleotide = AACCGTAT; value = 0.119
Oligonucleotide = CTGGAAAC; value = -0.0867
Oligonucleotide = GACGCGCA; value = 0.323
Oligonucleotide = GAGGTTTA; value = -0.122
Oligonucleotide = AGCGCGGC; value = 0.442
Oligonucleotide = AATGTCGC; value = 0.0545
